{"data": "Published values from different studies", "target": "Serine/threonine-protein kinase MARK1 (MARK1, Homo sapiens, UniProt Q9P0L2)"}
{"SMILES": "CNC(=O)C1CCN(c2cc(C)c(F)cc2NC(=O)c2ccc(-c3cc(O)ccc3C)c(C)c2)CC1", "test": "binding, competition with immobilised ligand", "setting": "1 µM", "quantity": "remaining binding", "result": "81%"}
{"SMILES": "CNC1C[S+]2CC[S+]3CC[S+](C1)[Ru-4]321([N]=C=S)[n]2c3ccc(OC)cc3c3c4c(c5cc(F)c[n+]1c5c32)C(=O)NC4=O (stereo not shown)", "test": "KinomeScan", "setting": "0.1 µM", "how to read": "relative to: untreated", "quantity": "remaining binding", "result": "62%"}
{"SMILES": "CCn1cc(C(=O)O)c(=O)c2c(N)c(F)c(NC3CCCCC3)cc21", "test": "kinase activity", "setting": "0.1 µM, together with: ATP at Km", "quantity": "inhibition", "result": "7.3%"}
{"SMILES": "C=CC(=O)N1Cc2nc(-c3cc(-c4cc(Cl)cnc4Cl)c(F)cc3F)n(-c3ccncn3)c2C1", "test": "cell-free assay, inhibitor", "setting": "1 µM", "quantity": "inhibition", "result": "-0.1%"}
{"SMILES": "CC(C)=CC1OC(C)(C)C2C=C3C(=O)C(Cl)=CC(O)C3C3C(O)C4OC4C(=O)C132 (stereo not shown)", "test": "cell-free assay, competition with immobilised ligand", "setting": "10 µM", "quantity": "remaining binding", "result": "75%"}
{"SMILES": "Cc1ccc(-c2c(/C=C(\\C#N)C(=O)NC(C)C)n(CCCO)c3ncnc(N)c23)cc1", "test": "cell-free assay, competition with immobilised ligand", "setting": "1 µM", "quantity": "remaining binding", "result": "100%"}
{"SMILES": "COc1cc(Nc2nc(C)cc(-c3cnn4nc(OC)ccc34)n2)cc(C(F)(F)F)c1", "test": "inhibitor", "setting": "1 µM", "how to read": "relative to: control", "quantity": "remaining activity", "result": "98%"}
{"SMILES": "CN1CC[C@@H](COc2cnc(C#N)cc2-c2ccn3nc(NC(=O)C4CC4)cc3c2)C1", "test": "inhibitor, KinaseProfiler panel", "setting": "1 µM", "quantity": "inhibition", "result": "-3%"}
{"SMILES": "CCN1CCN(Cc2ccc(C(=O)Nc3ccc(C)c(NCc4cnc5[nH]ccc5c4OC)c3)cc2C(F)(F)F)CC1", "test": "binding, competition with immobilised ligand", "setting": "1 µM", "quantity": "remaining binding", "result": "72%"}
{"SMILES": "C=CC(=O)Nc1cccc(-c2cnc3[nH]cc(C(=O)NC(C)(C)C)c3n2)c1", "test": "kinase activity", "setting": "0.1 µM", "quantity": "inhibition", "result": "51%"}
{"SMILES": "CNC(=O)C[C@H](Cc1ccc(C#N)cc1)NC(=O)c1cc(-c2ccc(CN[C@H](C)c3ccc(C)cc3)o2)ccc1Cl", "test": "enzyme activity, inhibitor", "setting": "1 µM", "quantity": "activity vs control", "result": "115%"}
{"SMILES": "COc1c(OCCCN2CCOCC2)ccc2c1N=C(NC(=O)c1cnc(N)nc1)N1CCN=C21", "test": "kinase activity, inhibitor", "setting": "1 µM", "how to read": "relative to: untreated control", "quantity": "remaining activity", "result": "100%"}
{"SMILES": "Cc1cccc(O[C@H]2CCC[C@@H](C(C)CNCc3ccncc3)C2)c1 (relative stereo)", "test": "enzyme activity, inhibitor", "setting": "1 µM", "quantity": "inhibition", "result": "2%"}
{"SMILES": "NC(=O)[C@@H](O)C[C@H]1CCc2sc3ncnc(O[C@H]4CC[C@H](N5CCOCC5)CC4)c3c21", "test": "enzyme activity, inhibitor", "setting": "10 µM", "quantity": "inhibition", "result": "0%"}
{"SMILES": "Cc1nc2c(F)cc(-c3nc(Nc4ccc(CNC(=O)CCCCCCC(=O)NO)cc4)ncc3F)cc2n1C(C)C", "test": "enzyme activity, inhibitor", "setting": "1 µM", "quantity": "inhibition", "result": "22%"}
{"SMILES": "C=CC(=O)N1CCc2ccc(-n3c(=O)ccc4cnc5ccc(-c6cnn(C)c6)cc5c43)cc21", "test": "KINOMEscan", "setting": "1 µM", "how to read": "relative to: DMSO control", "quantity": "remaining binding", "result": "95%"}
{"note": "Excerpt of the above:"}
{"SMILES": "CC(C)=CC1OC(C)(C)C2C=C3C(=O)C(Cl)=CC(O)C3C3C(O)C4OC4C(=O)C132 (stereo not shown)", "test": "cell-free assay, competition with immobilised ligand", "setting": "10 µM", "quantity": "remaining binding", "result": "75%"}
{"SMILES": "CNC(=O)C[C@H](Cc1ccc(C#N)cc1)NC(=O)c1cc(-c2ccc(CN[C@H](C)c3ccc(C)cc3)o2)ccc1Cl", "test": "enzyme activity, inhibitor", "setting": "1 µM", "quantity": "activity vs control", "result": "115%"}
